Measured values from different studies.
“And” joins repeats or separate records; there may be more than shown. Numbers after ± are the reported error. Converted amounts (≈) assume the structure as drawn.

For CCCCCCCCCCCC[N+](C)(C)CCCCCCCCCC[N+](C)(C)CCCCCCCCCCCC.[Br-].[Br-], the protection was 34.1 ± 10.8% (influenza A virus A/PR/8/34 (H1N1); concentration not given, co-treatment).
CC[C@H](C)[C@@H]1NC(=O)[C@H](CO)NC(=O)[C@@H]2CCCN2C(=O)[C@@H](NC(=O)CN)CSSC[C@@H]2NC(=O)CNC(=O)[C@H](C)NC(=O)[C@H](CC(C)C)NC(=O)[C@@H]3CSSC[C@@H](C(=O)NCC(=O)O)NC(=O)[C@H](Cc4ccccc4)NC(=O)CNC(=O)[C@H](CC(N)=O)NC(=O)[C@@H]4CCCN4C(=O)CNC(=O)[C@H](CSSC[C@H](NC(=O)[C@H](CCCNC(=N)N)NC(=O)[C@H](Cc4c[nH]cn4)NC(=O)[C@H](CCCNC(=N)N)NC(=O)[C@H](CCCCN)NC(=O)[C@H](C(C)C)NC(=O)[C@H](CCCNC(=N)N)NC(=O)[C@H](CC(N)=O)NC1=O)C(=O)N[C@@H](CCCCN)C(=O)N[C@@H](CCC(N)=O)C(=O)N[C@@H](CC(=O)O)C(=O)N[C@@H](CO)C(=O)N[C@@H](CC(=O)O)C(=O)N3)NC(=O)[C@H](C(C)C)NC2=O gave an IC50 of 108 ± 28 nM (HEK293, Wnt1-transfected; Wnt signalling).
CCNCCc1c[nH]c2cccc(O)c12.CCNCCc1c[nH]c2cccc(O)c12.O=C(O)CCC(=O)O — result for “head twitch response”: 17.7 ± 4.3 count/30 min (C57BL/6J mice; subcutaneous, 30 mg/kg).
O=C(Cc1cccc(I)c1)N[C@H]1CCOC1=O has an activation of 61% (ExpR2 (Pectobacterium carotovorum); cellulase activity, agonist; Pectobacterium carotovorum, single-ExpR2 strain; 200 µM, 4 h; baseline: OHHL).
For CCCCCCCCCCCC[N+](C)(C)CCOCC[N+](C)(C)CCCCCCCCCCCC.[Br-].[Br-], the protection was 83 ± 8.5% (influenza A virus A/PR/8/34 (H1N1); concentration not given, pre-treatment).
O=C(O)/C=C/C(=O)O.Oc1cccc2[nH]cc(CCNC3CCCCC3)c12: “head twitch count” 5.8 ± 1.1 (C57BL/6J mice; subcutaneous, 10 mg/kg).
Under “LS mean difference vs placebo”, CS(=O)(=O)CCCn1c(Cn2c(=O)n(CC(F)(F)F)c3ccncc32)cc2cc(Cl)ccc21 is recorded as -1.91 log10 copies/mL (respiratory syncytial virus; RT-qPCR; hospitalized infants 1-24 months, nasal swab; oral, 9, 6 or 5 mg/kg daily, day 3, high dose by age cohort; baseline: placebo).
Under lifespan, COc1cccc(C(=O)NN(C(=O)c2cc(C)cc(C)c2)C(C)(C)C)c1C is recorded as “no effect” (Anopheles funestus; FUMOZ, resistant; tarsal contact, dose not given, no blood meal, without RME; baseline: control).
The LC50 of COc1cc(CCC[P+](c2ccccc2)(c2ccccc2)c2ccccc2)c(OC)c2c1OCO2.[I-] is reported as greater than -4 log M (NCI-H522; SRB).
CCCCCCCCCCCCCCCC[N+](C)(C)Cc1ccc(C[N+](C)(C)CCCCCCCCCCCCCCCC)cc1.[Br-].[Br-]: “HA titre reduction” 2 log units (influenza A virus A/PR/8/34 (H1N1); concentration not given, pre-treatment).
CCCCNCCc1c[nH]c2cccc(O)c12.O=C(O)/C=C/C(=O)O: “head twitch count” 5.5 ± 1 (C57BL/6J mice; subcutaneous, 0.3 mg/kg).
C=CCN1CC[C@]23c4c5ccc(O)c4O[C@H]2C(=O)CC[C@@]3(O)[C@H]1C5 has a % MPE of 2.95% and 0.79% and -1.43% and -0.51% and 1.31% and -3.53% (tail-flick test; male ICR-CD1 mice; subcutaneous, 5 mg/kg, 15 min).
CC(C)(C)NCCc1c[nH]c2cccc(O)c12.CC(C)(C)NCCc1c[nH]c2cccc(O)c12.O=C(O)/C=C/C(=O)O: “head twitch count” 8.5 ± 1.9 (C57BL/6J mice; subcutaneous, 3 mg/kg).
CC[C@H](C)[C@@H]1NC(=O)[C@@H]2CCCN2C(=O)[C@H](CC(C)C)NC(=O)[C@H](CC(C)C)NC(=O)CNC(=O)[C@@H](NC(=O)[C@@H](NC(=O)[C@H](CC(=O)O)NC(=O)CNC(=O)[C@@H](NC(=O)[C@H](C)NC(=O)CNC(=O)[C@H](CCCCN)NC(=O)[C@H](CC(C)C)NC(=O)[C@H](CC(C)C)NC(=O)[C@H](CCCCN)NC(=O)CNC(=O)[C@@H](NC(=O)[C@@H](N)CC(C)C)C(C)C)C(C)C)C(C)C)CSSC[C@@H](C(=O)O)NC1=O — result for “log2 fold change”: -1.78 (RNA-seq, refers to: Pgf mRNA; mouse traumatic brain injury, frontal cortex and hippocampus; dose not given; baseline: TBI plus compound vs TBI).
The AST activity of C[C@H]1O[C@@H](O[C@H]2CC[C@@]3(C)[C@@H](CC[C@]4(C)[C@@H]3C=C[C@]35OC[C@@]6(CCC(C)(C)C[C@H]63)[C@@H](O)C[C@]54C)[C@]2(C)CO)[C@H](O)[C@@H](O[C@@H]2O[C@H](CO)[C@@H](O)[C@H](O)[C@H]2O)[C@H]1O is reported as 56.9 U/L and 24.4 U/L and 38.3 U/L and 26.4 U/L and 40.7 U/L and 56.7 U/L (Mus musculus, pair-fed, AAV8-TBG-Null vector, plasma; oral, high dose, 5 h).
The protection of CCC(CC)O[C@@H]1C=C(C(=O)O)C[C@H](N)[C@H]1NC(C)=O is reported as 78.4 ± 0.3% (influenza A virus A/PR/8/34 (H1N1); concentration not given, co-treatment).
CC(C)NCCc1c[nH]c2cccc(O)c12.O=C(O)/C=C/C(=O)O — result for “head twitch count”: 5.5 ± 0.9 (C57BL/6J mice; subcutaneous, 0.1 mg/kg).
CC[C@H](C)[C@H](NC(=O)[C@H](C)NC(=O)[C@H](CCCCN)NC(=O)[C@H](CC(C)C)NC(=O)[C@H](C)NC(=O)[C@@H](NC(=O)[C@H](Cc1c[nH]cn1)NC(=O)[C@H](CC(C)C)NC(=O)[C@@H](NC(=O)[C@@H](NC(=O)[C@H](CCCCN)NC(=O)[C@H](C)NC(=O)[C@H](C)NC(=O)[C@H](CO)NC(=O)[C@H](CCCCN)NC(=O)[C@H](Cc1ccccc1)NC(=O)[C@@H](NC(=O)[C@H](CCCCN)NC(=O)[C@H](CC(C)C)NC(=O)[C@H](Cc1ccccc1)NC(=O)[C@H](CO)NC(=O)[C@H](CCCCN)NC(=O)[C@H](Cc1c[nH]c2ccccc12)NC(=O)[C@H](CCCCN)NC(C)=O)[C@@H](C)O)[C@@H](C)O)C(C)C)[C@@H](C)O)C(=O)N[C@@H](CO)C(=O)N[C@@H](CO)C(N)=O gave an MBC90 of 32 µg/mL (≈ 10.9 µM) (Enterococcus faecalis; ATCC 29212).
With CCCNCCc1c[nH]c2cccc(O)c12.CCCNCCc1c[nH]c2cccc(O)c12.O=C(O)/C=C/C(=O)O the distance travelled was 1340 ± 96 cm (C57BL/6J mice; subcutaneous, 30 mg/kg, 30 min).
CN1CCN(S(=O)(=O)c2cc([N+](=O)[O-])ccc2N(CCOS(C)(=O)=O)CCOS(C)(=O)=O)CC1 — result for “EFS ratio (T/C)”: greater than 21.6 (NSG mice, sample CI PDX; intraperitoneal, 25 mg/kg weekly x3; baseline: treated over vehicle).
C=CCNCCc1c[nH]c2cccc(O)c12.C=CCNCCc1c[nH]c2cccc(O)c12.O=C(O)/C=C/C(=O)O has a distance travelled of 2870 ± 235 cm (C57BL/6J mice; subcutaneous, 3 mg/kg, 30 min).
For CC(C)n1ncc2c(C(=O)NCC3(C)CNC3)cc(C3CC3)nc21, the plaque reduction was 100% (enterovirus D68; recombinant US/MO/14-18947 wild type; 50000 nM).

Some of these lines once more:
CC(C)NCCc1c[nH]c2cccc(O)c12.O=C(O)/C=C/C(=O)O — result for “head twitch count”: 5.5 ± 0.9 (C57BL/6J mice; subcutaneous, 0.1 mg/kg).
CC[C@H](C)[C@H](NC(=O)[C@H](C)NC(=O)[C@H](CCCCN)NC(=O)[C@H](CC(C)C)NC(=O)[C@H](C)NC(=O)[C@@H](NC(=O)[C@H](Cc1c[nH]cn1)NC(=O)[C@H](CC(C)C)NC(=O)[C@@H](NC(=O)[C@@H](NC(=O)[C@H](CCCCN)NC(=O)[C@H](C)NC(=O)[C@H](C)NC(=O)[C@H](CO)NC(=O)[C@H](CCCCN)NC(=O)[C@H](Cc1ccccc1)NC(=O)[C@@H](NC(=O)[C@H](CCCCN)NC(=O)[C@H](CC(C)C)NC(=O)[C@H](Cc1ccccc1)NC(=O)[C@H](CO)NC(=O)[C@H](CCCCN)NC(=O)[C@H](Cc1c[nH]c2ccccc12)NC(=O)[C@H](CCCCN)NC(C)=O)[C@@H](C)O)[C@@H](C)O)C(C)C)[C@@H](C)O)C(=O)N[C@@H](CO)C(=O)N[C@@H](CO)C(N)=O gave an MBC90 of 32 µg/mL (≈ 10.9 µM) (Enterococcus faecalis; ATCC 29212).
